Measured values collected from several papers.
Numbered parts are unrelated; each lists some results of a single study. Positions count from the first letter of the parent shown.

Study 1
Target: ABI1, truncated, D143A, DHFR fusion (Arabidopsis thaliana)
Method: DHFR PCA, deep sequencing
Medium: yeast
Setting: methotrexate growth selection, single substitutions
Added: (+)-ABA 0.39 µM
Relative to: wild-type fitted maximum
Direction: higher = stronger binding
Parent: PYL1, truncated, DHFR fusion (Arabidopsis thaliana); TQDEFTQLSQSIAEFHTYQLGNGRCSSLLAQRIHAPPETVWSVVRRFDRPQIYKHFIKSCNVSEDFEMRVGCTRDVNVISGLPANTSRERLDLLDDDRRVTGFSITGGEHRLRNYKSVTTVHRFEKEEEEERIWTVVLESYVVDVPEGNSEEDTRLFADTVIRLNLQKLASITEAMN
Variant	relative binding score [%]
R24P	-1.61
E109S	22.6
D92S	-3.41
L28Q	3.87
Y115V	5.9
T106C	24.2
V161Y	7.55
V40P	-6.57
V143P	-12.5
T17P	-4.49
V136P	1.15
H122M	2.97
G148F	-19.1
V40I	-9.17

Study 2
Target: Histone acetyltransferase KAT6A, winged helix 1, GST fusion (KAT6A, Homo sapiens, UniProt Q92794, residues 1-85)
Method: protein binding microarray
Molecule type: double-stranded DNA, one strand shown
Medium: in vitro
Tested at: not given
Setting: 8-mer, flanks averaged, mean of 2 arrays, mostly near background
Relative to: not given
Direction: higher = stronger binding
Residues (chain): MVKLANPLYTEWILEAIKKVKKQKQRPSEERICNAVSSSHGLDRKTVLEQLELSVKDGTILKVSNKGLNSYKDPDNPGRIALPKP
Strand	E-score
GGCACAGA	0.0761
CAAGTCGG	0.0256
AGAGGAAC	-0.175
CGAGAAAC	0.0243
ACGGGCTG	0.208
GAAGTGTC	-0.284
AAAAAGGG	0.0183
TCAGTTCA	-0.0543
CTGTAGGC	-0.0723
AAACACGT	-0.0284
AAAGTTCG	-0.195
GTATTGTA	0.0517
CATTCCCA	-0.115
CATTAAAG	-0.183
AACCTCCT	-0.0347
CCATGAAA	-0.192

Study 3
Target: CCNF, cyclin fold, Cln2 fusion (human)
Method: yeast growth competition, sequencing
Medium: yeast
Setting: strong parent motif
Relative to: not given
Direction: higher = stronger binding
Parent: PKMYT1 docking peptide (human); SFEPRNLLSLFED; partner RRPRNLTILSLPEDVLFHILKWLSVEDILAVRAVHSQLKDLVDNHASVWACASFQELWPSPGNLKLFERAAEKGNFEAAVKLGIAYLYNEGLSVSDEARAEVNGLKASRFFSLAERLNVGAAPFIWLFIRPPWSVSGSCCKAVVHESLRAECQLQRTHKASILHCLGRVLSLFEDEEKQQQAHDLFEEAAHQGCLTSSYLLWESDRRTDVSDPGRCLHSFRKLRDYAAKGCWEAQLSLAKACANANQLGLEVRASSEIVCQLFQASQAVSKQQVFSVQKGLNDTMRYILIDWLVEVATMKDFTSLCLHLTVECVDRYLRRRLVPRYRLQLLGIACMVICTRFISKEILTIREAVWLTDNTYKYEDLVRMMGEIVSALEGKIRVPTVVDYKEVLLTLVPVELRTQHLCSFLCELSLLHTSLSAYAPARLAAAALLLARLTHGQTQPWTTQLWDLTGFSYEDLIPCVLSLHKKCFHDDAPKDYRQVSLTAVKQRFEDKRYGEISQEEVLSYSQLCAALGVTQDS
Variant	normalised enrichment score
E12S	0.797
S9N	1.26
L10V	0.36
F11N	-0.444
E3F	1.96
P4Y	-0.899
L8P	-0.759
N6R	1.58
L7D	-1.11
E12G	0.25
D13Y	2.62
S1Q	0.89
S9K	0.865
P4V	1.27
F2D	-0.546
L10F	0.962
L7T	-0.423
D13K	0.648

Study 4
Target: Ras GTPase-activating protein-binding protein 1, RRM domain (G3BP1, Homo sapiens, UniProt Q13283)
Chain of UniProt Q13283 (whole entry, looked up): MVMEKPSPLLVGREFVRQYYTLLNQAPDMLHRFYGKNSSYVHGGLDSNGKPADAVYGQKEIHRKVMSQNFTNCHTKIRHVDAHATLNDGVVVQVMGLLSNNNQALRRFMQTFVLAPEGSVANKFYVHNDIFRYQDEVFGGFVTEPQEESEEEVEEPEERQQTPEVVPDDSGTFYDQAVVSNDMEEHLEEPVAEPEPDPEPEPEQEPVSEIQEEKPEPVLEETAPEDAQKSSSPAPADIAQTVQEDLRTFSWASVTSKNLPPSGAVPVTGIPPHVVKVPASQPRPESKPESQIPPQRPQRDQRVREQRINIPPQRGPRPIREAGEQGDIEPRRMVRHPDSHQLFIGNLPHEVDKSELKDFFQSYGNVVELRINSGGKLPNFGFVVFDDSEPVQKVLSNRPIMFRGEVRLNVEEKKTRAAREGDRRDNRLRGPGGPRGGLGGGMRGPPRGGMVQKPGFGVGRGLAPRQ
Method: RNA Bind-n-Seq
Molecule type: RNA
Medium: in vitro
Tested at: 1 µM
Setting: whole 134-nt RNA, ends assumed
Added: 150 mM KCl
Relative to: input library
Direction: higher = stronger binding
Shared flanks, not repeated: GGGAGUUCUACAGUCCGACGAUC … UGGAAUUCUCGGGUGUCAAGG
Strand	log2 enrichment
UCAAGUCCUGUGCUACACAUCGUAUGUACCGAAUCGGAAAGGAAAAAAAGGAGGAAAGUAUUAUGUUACGCCGUUCGGAUCUGCACUUCC	-0.0805
UGGGAGGUGGAUUUUGUUUAUGUUUUUAGCUCAUUUCCAGGGGUGGGAAUUUUUUUUUAAUAUGUGUCAUGAAUAAAGUUGUUUUUGAAA	1.35
UGGGAGGUGGAUUUUGUUUAUUUUUUUAGCUCAUUUCCAGGGGUGGGAAUUUUUUUUUAAUAUGUGUCAUGAAUAAAGUUGUUUUUGCAA	1.4
CCUGUGCUACACAUCGUAUGUACCGAAUCGGGCCCCCCGGCCCCCCGGGGCCCCCCGGGGAAAGUAUUAUGUUACGCCGUUCGGAUCUGC	-0.528
GUGCUACACAUCGUAUGUACCGAAUCGGGGUUUUUUUGGGGUUUUUUUGGGGAAAAAAAGGGGAAAGUAUUAUGUUACGCCGUUCGGAUC	0.889
UUCUUUGCCCAACGGGGCCGUGGAUACCUGCCUUUUAAUUCUUUUUUAUUCGCCCAUCGGGGCCGCGGAUACCUGCUUUUUAUUUUUUUU	-0.413
GUCCUGUGCUACACAUCGUAUGUACCGAAUCGGGGCCCCCGGCCCCCGGGCCCCCGGGAAAGUAUUAUGUUACGCCGUUCGGAUCUGCAC	-0.568
CUGUGCUACACAUCGUAUGUACCGAAUCGGGGUUUUUUUGGGGUUUUUUUGGUUUUUUUGGGAAAGUAUUAUGUUACGCCGUUCGGAUCU	-0.289

Study 5
Target: RNA binding protein fox-1 homolog 2, RRM domain, GST-SBP tag (RBFOX2, Homo sapiens, UniProt O43251-10, residues 100-194)
Method: RNA Bind-n-Seq
Molecule type: RNA
Medium: in vitro
Tested at: 365 nM
Setting: natural RNA segment, single round, ends assumed
Relative to: no-protein control
Direction: higher = stronger binding
Shared flanks, not repeated: GGGAGUUCUACAGUCCGACGAUC … UGGAAUUCUCGGGUGCCAA
Target sequence (chain): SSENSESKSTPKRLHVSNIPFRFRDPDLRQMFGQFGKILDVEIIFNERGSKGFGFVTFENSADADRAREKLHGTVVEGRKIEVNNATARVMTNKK
Strand	RBNS enrichment (R)
AGCAAGAAGCCUGGUAAAACUGUGACUUUUCCCCAAACGUCAAUCUUUAUUAGAAAGCAUUUUCUAGGUGUGUUUAGUGUACAAAGAGACUUUAUAACCCUUACUGGACA	0.378
UCCUCCAUCAGAUGCCUGGGCCUCCUCCAUCAGAUGCCUAGGCCUCCUCCAUCAGAUGUCUGGGCCUCCUCCAUCAGAUGCCUGGGCCUCCUCCAUCAGAUGCCUGGGCC	0.425
GAAGUGGAUUUUUAAAAAACAGUUAAAUGUGUGUGCAUAACACACAAGUAAUGACACACUACUAUUAUUAUUACCUAAGUAGUGCUCAUCCUCUCUUUCUGUGUUUUCUU	0.242
GUCCUGGCAGCUUCUCUGAGGUGCUGCUCGUUUGCAUUAGUCCCGCCUCCUCCAUCUUUCAUGUGGUACCCAGGUAAAUGUGGACAUAGUGUGAAGGGACCUGUGGCCAC	0.786
UUAAAAGAAAACUAUUUUGAUGAAUAUAUUUAAAAAACCUUUUUUUAUUGUGGAGCAUAGGAAUUGCCCCCCUCCAGGCUUCACCCUCCCUGCCUAAGCAGGGUGGGGGC	0.327
UGCUGCACCUCCCGGGGCUCCGGGGUGGGGCCAGGGAGGCCAGCCUGGGUCCGACUUCCCAAACACACUGGAGCUCGUUGAGCUGGCUGCGCAGCCUGCUUUGUCCUCCC	0.277
CAGCUGCUAGAGGGGAAAAACAAUUAAGACAAUGGAAAAGGAAAAAGGAAUGAAGGAACCUCCCUCCCUGAAAGCUUUUCCUGCUUCUGAGACUGUGUUCAGCCCUUUCC	0.736
AUGGCCCUGCCUUCUAUGUCACACAUAGGAUUUGGUGUCAUUAGUGUUUGCUGUCAUGCCCCAUGAGUAGCUCCUUACUUGGUCUGCUCAGGGCAUCCUAGGGAAUGUUC	0.189

A few entries again (study 3):
Variant	normalised enrichment score
E3F	1.96
F11N	-0.444
F2D	-0.546
S9K	0.865
